Results pooled from the literature.
Each line is one published result; not all experiments were run side by side.

C[C@@H]1OC(=O)NN=C1c1ccc(-c2ccc(F)cc2)c(C(F)(F)F)c1
patients with adverse event (phase I trial, refers to: Cough all grades; human patients; 5 mg once daily): 0%

Cc1cn([C@H]2O[C@@H](CO[P@@](=O)(N[C@@H](C)C(=O)OC(C)C)Oc3ccccc3)[C@H](O)[C@H]2F)c(=O)[nH]c1=O
patients with TEAE (refers to: Nausea; human; 10 mg): 0%

C=CC(=O)Nc1cc(Nc2nccc(Nc3cc(Cl)c(F)cc3C(C)(C)O)n2)c(OC)cc1N1CC[C@@H](N(C)C)C1
patients with diarrhoea (human patients; oral, 100 mg, treatment-emergent adverse events): 11.1%

CCN(CCO)CCCC(C)Nc1ccnc2cc(Cl)ccc12 (stereo not drawn)
patients with adverse event (human, newly diagnosed glioblastoma; oral, 800 mg/dose, maculopapular rash grade 2, with RT and TMZ): 33%

CCS(=O)(=O)Nc1ccc(Oc2ccc(F)cc2F)c(-c2cn(C)c(=O)c3[nH]ccc23)c1
patients with serious adverse event (refers to: Pneumonia; human, relapsed/refractory AML; oral, dose not given, trial, added: alone or with venetoclax): 16%

C[C@]1(O)C[C@@](N)(c2ccc(-c3nc4n(c3-c3ccccc3)COc3ccncc3-4)cc2)C1
patients with Hyperglycemia TEAE (human, advanced or metastatic solid tumours; dose not given, all patients, any grade): 29.4%

COc1ncnn2ccc(-c3cnc4nc(C)n(Cc5nnc([C@@H](C)F)o5)c4c3)c12
patients with increased blood creatinine (human; oral, dose not given, grade 4): 0%

Cn1ncc(-c2nc(N[C@H]3CC[C@H](N)CC3)ncc2Cl)c1CC1CC1
patients with adverse events (refers to: treatment-related Vomiting; human patients phase I; dose not given): 38.7%

O=C(c1ccc(F)c(F)c1Nc1ccc(I)cc1F)N1CC(O)([C@@H]2CCCCN2)C1
patients with AE leading to withdrawal (human patients; oral, 1 mg/kg, dose expansion cohort): 8%

Some of these lines once more:
CCS(=O)(=O)Nc1ccc(Oc2ccc(F)cc2F)c(-c2cn(C)c(=O)c3[nH]ccc23)c1
patients with serious adverse event (refers to: Pneumonia; human, relapsed/refractory AML; oral, dose not given, trial, added: alone or with venetoclax): 16%
